{"data": "Measurements of several laboratories", "organism": "Staphylococcus aureus", "note": "Lines come from different studies, so protocols differ."}
{"Structure (SMILES)": "CN1C(=O)[C@@H]2NC(=O)[C@@H]3NC(=O)[C@@H](c4ccc(O)cc4)NC(=O)[C@H](NC(=O)C(NCc4ccccn4)c4ccc(O)cc4)Cc4c[nH]c5cc(ccc45)-c4cc3cc(c4O)Oc3ccc(cc3)C[C@H]1C(=O)N[C@@H](C(=O)O)c1ccc(O)c(c1)Oc1ccc2cc1 (stereo partly shown)", "test system": "ATCC 33591 MRSA, Mueller-Hinton broth", "MIC": "64 µg/mL"}
{"Structure (SMILES)": "O=C1c2ccccc2NC(c2ccc(Cl)c([N+](=O)[O-])c2)N1/N=C/c1ccc(Cl)c([N+](=O)[O-])c1 (stereo not shown)", "assay": "microbial growth, broth dilution", "conditions": "24 h, drug-resistant strain, clinical isolate", "MIC": "> 256 µg/mL"}
{"Structure (SMILES)": "CC[C@H](C)[C@H](N)C1=N[C@H](C(=O)N[C@@H](CC(C)C)C(=O)N[C@H](CCC(=O)O)C(=O)N[C@H](C(=O)N[C@H]2CCCCNC(=O)[C@H](CC(N)=O)NC(=O)[C@@H](CC(=O)O)NC(=O)[C@H](Cc3c[nH]cn3)NC(=O)[C@@H](Cc3ccccc3)NC(=O)[C@H](Cc3ccccc3)NC(=O)[C@@H](CCCN)NC2=O)[C@@H](C)CC)CS1", "test system": "USA300 MRSA", "conditions": "18 h, 37 °C, with: ZnSO4 0.3 mM", "MIC": "2 µg/mL"}
{"Structure (SMILES)": "CC[C@H](C)[C@H](NC(=O)[C@@H](Cc1ccccc1)NC)C(=O)OC[C@H](N)C(=O)N[C@H](CCC(N)=O)C(=O)N[C@@H](C(=O)N[C@H](C(=O)OC[C@H](N)C(=O)N[C@H]1C(=O)N[C@@H](C)C(=O)N[C@@H](C2CCCCC2)C(=O)N[C@@H]([C@@H](C)CC)C(=O)O[C@H]1C)[C@@H](C)CC)[C@@H](C)CC", "assay": "broth microdilution", "test system": "ATCC 29213, MSSA, Mueller-Hinton broth", "conditions": "16 h, 37 °C", "MIC": "0.5 µg/mL"}
{"Structure (SMILES)": "CC(C)C[C@@H]1NC(=O)[C@H](C)NC(=O)[C@H](NC(=O)[C@H](CO)NC(=O)[C@@H](CCCCN)NC(=O)[C@@H](C)NC(=O)[C@@H](N)Cc2ccccc2)[C@H](C(N)=O)OC(=O)[C@H](CC(C)C)NC1=O", "test system": "MRSA ATCC 700698", "conditions": "TFA salt", "MIC": "32 µg/mL"}
{"Structure (SMILES)": "COc1ccc2c(c1CC=C(C)C)O[C@H]1c3cc4c(cc3OC[C@@]21O)OC(C)(C)C=C4", "MIC": "inactive"}
{"Structure (SMILES)": "NC[C@@H]1O[C@H](O[C@H]2[C@@H](O)[C@H](O[C@@H]3[C@@H](O)[C@H](N)C[C@H](N)[C@H]3O[C@H]3O[C@H](CO)[C@@H](SCCF)[C@H](O)[C@H]3N)O[C@@H]2CO)[C@H](N)[C@@H](O)[C@@H]1O", "test system": "methicillin-resistant, AAC(6') ANT(4',4'') APH(3')", "MIC": "4 to 8 µg/mL"}
{"Structure (SMILES)": "O.O=[N+]([O-])[O-].O=c1cc[nH]c(=S)[nH]1.[Ag+].c1ccc(P(c2ccccc2)c2ccccc2)cc1.c1ccc(P(c2ccccc2)c2ccccc2)cc1", "assay": "agar dilution", "test system": "methicillin-resistant", "conditions": "24 h, 37 °C", "MIC": "50 µg/mL"}
{"Structure (SMILES)": "CC(C)C1=CC2=CCC3C(C)(C(=O)OCCC[N+](C)(C)C)CCCC3(C)C2CC1 (stereo not shown)", "assay": "microbial growth", "test system": "ATCCBAA44 MRSA", "conditions": "drug-resistant strain", "MIC": "19.5 µg/mL"}
{"Structure (SMILES)": "COc1ccc2ccc3c(c2c1)C=[N+]1C2CCCCC2[N+]2=Cc4ccc(OCCN5CCCCC5)cc4[O][Au-]21[O]3.F[P-](F)(F)(F)(F)F (stereo not shown)", "assay": "bacterial growth, broth microdilution", "test system": "vancomycin-intermediate", "conditions": "24 h", "MIC": "20 µM"}
{"Structure (SMILES)": "C[C@@H](O)[C@H]1C(=O)N2C(C(=O)O)=C(S[C@@H]3CN[C@H](C(=O)N(C)C)C3)[C@H](C)[C@H]12", "assay": "broth microdilution", "test system": "multidrug-resistant", "MIC": "6.25 µM"}
{"Structure (SMILES)": "CCO[C@H]1[C@H](O)[C@@H](N)[C@@H](O[C@H]2[C@H](O[C@@H]3O[C@H](CO)[C@@H](O[C@H]4O[C@@H](CN)[C@@H](O)[C@H](O)[C@H]4N)[C@H]3O)[C@@H](O)[C@H](N)C[C@@H]2N)O[C@@H]1CO", "assay": "broth microdilution", "test system": "MRSA isolate AG 042", "MIC": "8 to 16 µg/mL"}
{"Structure (SMILES)": "CCCCCCCCCCCCCCCc1cc(O)cc(O)c1", "assay": "microbial growth, broth dilution", "test system": "USA300", "conditions": "drug-resistant strain", "MIC": "> 64 µg/mL"}
{"Structure (SMILES)": "N=C(N)NCCC[C@@H]1NC(=O)[C@H](CCCNC(=N)N)NC(=O)[C@H](CCCNC(=N)N)NC(=O)[C@H](CCCNC(=N)N)NC(=O)[C@H](Cc2c[nH]c3ccccc23)NC(=O)[C@H](CCCNC(=N)N)NC(=O)[C@H](CCCNC(=N)N)NC(=O)[C@@H](N)CCn2cc(nn2)C[C@@H](C(N)=O)NC1=O", "test system": "ATCC 25923", "conditions": "24 h, 37 °C", "MIC": "7.8 µg/mL"}
{"Structure (SMILES)": "N=C(N)NCCC[C@@H]1NC(=O)[C@H](CCCNC(=N)N)NC(=O)[C@H](CCCNC(=N)N)NC(=O)[C@H](Cc2c[nH]c3ccccc23)NC(=O)[C@H](Cc2c[nH]c3ccccc23)NC(=O)[C@H](Cc2c[nH]c3ccccc23)NC(=O)[C@H](Cc2c[nH]c3ccccc23)NC(=O)[C@H](CCCNC(=N)N)NC1=O", "assay": "broth microdilution", "test system": "MRSA ATCC 43300", "conditions": "37 °C", "MIC": "2.67 to 9.75 µg/mL"}
{"Structure (SMILES)": "CC(C)CCCCCCCCC/C=C/C(=O)N[C@@H](CC(=O)O)C(=O)N[C@H]1CNC(=O)[C@@H]2CCCN2C(=O)[C@H](C)NC(=O)[C@@H]([C@@H](C)O)NC(=O)CNC(=O)[C@H](CC(=O)O)NC(=O)CNC(=O)[C@H](CC(=O)O)NC(=O)CNC(=O)[C@H]2CCCCN2C1=O", "test system": "MRSA USA300", "conditions": "with: Ca2+ 1 mM", "MIC": "64 µg/mL"}
{"Structure (SMILES)": "CC(C)[C@H](NC(=O)[C@H](CCCCN)NC(=O)[C@H](CCCNC(=N)N)NC(=O)CNC(=O)[C@H](C)NC(=O)[C@H](CC(N)=O)NC(=O)[C@H](CCCNC(=N)N)NC(=O)[C@@H](NC(=O)[C@H](CCCCN)NC(=O)[C@H](CC(=O)O)NC(=O)[C@@H](NC(=O)[C@@H](NC(=O)[C@H](CCCNC(=N)N)NC(=O)[C@H](CCCNC(=N)N)NC(=O)[C@H](Cc1c[nH]c2ccccc12)NC(=O)[C@H](Cc1c[nH]c2ccccc12)NC(=O)CN)[C@@H](C)O)C(C)C)C(C)C)C(=O)O", "assay": "bacterial growth", "test system": "MRSA clinical isolate", "conditions": "18 h", "MIC": "> 256 µg/mL"}
{"Structure (SMILES)": "CCCCCCCCCCN1C(=O)/C(=N\\NC(N)=S)c2cc(C)ccc21", "assay": "broth microdilution", "test system": "BAA41 MRSA", "conditions": "18 h, 37 °C", "MIC": "> 192 µg/mL"}
{"Structure (SMILES)": "CNS(=O)(=O)c1ccc(-n2nnc(/C(C)=N/NC(=N)N)c2C)cc1", "assay": "microbial growth, broth dilution", "test system": "MRSA USA300", "conditions": "drug-resistant strain", "MIC": "> 64 µg/mL"}
